Measured values collected from several papers.
Numbered parts are unrelated; each lists some results of a single study.

Block 1
Target: Histone acetyltransferase KAT6A, winged helix 1, GST fusion (KAT6A, Homo sapiens, UniProt Q92794, residues 1-85)
Technique: protein binding microarray
Form: double-stranded DNA, one strand shown
Matrix: in vitro
Concentration: not given
Notes: 8-mer, flanks averaged, mean of 2 arrays, mostly near background
Reference: not given
Direction: higher = stronger binding
Quantity: E-score
Construct (chain): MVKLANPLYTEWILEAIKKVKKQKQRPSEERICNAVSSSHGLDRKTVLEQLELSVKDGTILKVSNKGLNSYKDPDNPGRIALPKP
CTCCTTGC: -0.162
GGTGTCAC: 0.014
GCCCCTGA: -0.0442
CTTGTTAA: -0.155
CAAACCTG: -0.0501

Block 2
Target: Sal-like protein 4, full length isoform A (SALL4, Homo sapiens, UniProt Q9UJQ4, residues 1-1053)
Sequence of UniProt Q9UJQ4 (whole entry, looked up): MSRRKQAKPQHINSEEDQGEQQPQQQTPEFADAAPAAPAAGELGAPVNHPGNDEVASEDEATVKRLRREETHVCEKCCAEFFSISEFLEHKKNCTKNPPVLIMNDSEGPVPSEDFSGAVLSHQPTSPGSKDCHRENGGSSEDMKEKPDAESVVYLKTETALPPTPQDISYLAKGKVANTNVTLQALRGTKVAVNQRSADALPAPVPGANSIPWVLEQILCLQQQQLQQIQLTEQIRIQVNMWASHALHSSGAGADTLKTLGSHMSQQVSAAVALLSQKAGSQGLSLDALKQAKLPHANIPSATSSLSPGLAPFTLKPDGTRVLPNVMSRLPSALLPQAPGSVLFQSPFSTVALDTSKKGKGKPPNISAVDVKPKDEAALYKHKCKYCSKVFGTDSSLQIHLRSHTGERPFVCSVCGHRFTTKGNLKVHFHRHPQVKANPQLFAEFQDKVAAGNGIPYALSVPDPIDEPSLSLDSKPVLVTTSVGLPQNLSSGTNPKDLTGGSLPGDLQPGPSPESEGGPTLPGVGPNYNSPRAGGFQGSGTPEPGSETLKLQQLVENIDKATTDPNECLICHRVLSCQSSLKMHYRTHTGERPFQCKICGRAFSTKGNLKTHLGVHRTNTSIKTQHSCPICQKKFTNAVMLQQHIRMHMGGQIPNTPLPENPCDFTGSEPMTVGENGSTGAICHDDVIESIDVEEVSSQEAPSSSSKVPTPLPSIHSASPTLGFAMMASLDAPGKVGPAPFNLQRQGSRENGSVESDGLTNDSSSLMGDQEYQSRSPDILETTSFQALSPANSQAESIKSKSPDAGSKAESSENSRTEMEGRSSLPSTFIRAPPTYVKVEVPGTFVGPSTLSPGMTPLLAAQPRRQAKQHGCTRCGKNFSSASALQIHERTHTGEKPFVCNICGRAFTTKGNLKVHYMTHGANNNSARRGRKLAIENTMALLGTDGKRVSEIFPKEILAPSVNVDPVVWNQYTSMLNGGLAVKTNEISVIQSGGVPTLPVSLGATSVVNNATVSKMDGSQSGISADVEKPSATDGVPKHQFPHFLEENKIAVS
Technique: universal PBM
Form: double-stranded DNA, one strand shown
Matrix: in vitro
Concentration: 600 nM
Notes: 8-mer, flanks averaged, mean of replicates
Direction: higher = stronger binding
Quantity: E-score
CTTCGGCC: -0.101
AGCTCACC: -0.164
CGGCAACC: -0.327

Single results of other studies
HCM1 DNA-binding domain: Forkhead transcription factor HCM1, DNA-binding domain (HCM1, Saccharomyces cerevisiae, UniProt P25364, residues 41-213)
Sequence of UniProt P25364 (41-213, looked up): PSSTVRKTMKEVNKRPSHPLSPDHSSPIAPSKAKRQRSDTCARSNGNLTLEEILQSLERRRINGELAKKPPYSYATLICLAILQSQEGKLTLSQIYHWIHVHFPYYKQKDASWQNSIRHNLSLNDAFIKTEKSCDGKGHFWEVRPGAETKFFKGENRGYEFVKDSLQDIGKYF
AATAATA  relative binding free energy (HCM1 DNA-binding domain; SELEX-seq; double-stranded DNA, one strand shown, in vitro; not given, 7-bp core, flanks averaged; reference: best-binding core, lower = stronger binding): 2.07 ddG/RT
PhoQ, residues 284 288 289 292 302 303 SLGVVW  fold induction (PhoP, residues 12 14 15 18 19 NIMAP (Escherichia coli, UniProt P23836); Sort-seq, measured: YFP reporter; E. coli; PhoQ-PhoP variant library, added: 10 µM Mg2+; reference: high Mg2+ state, higher = stronger signaling): 0.66
GGCAACA  relative binding free energy (HCM1 DNA-binding domain; SELEX-seq; double-stranded DNA, one strand shown, in vitro; not given, 7-bp core, flanks averaged; reference: best-binding core, lower = stronger binding): 1.64 ddG/RT

Some of these lines once more (single results of other studies):
AATAATA  relative binding free energy (HCM1 DNA-binding domain; SELEX-seq; double-stranded DNA, one strand shown, in vitro; not given, 7-bp core, flanks averaged; reference: best-binding core, lower = stronger binding): 2.07 ddG/RT
